Published values gathered from unrelated publications.
Lines come from different studies, so protocols differ.
Organism: Escherichia coli

For `N=C(N)c1ccc(OCCCCCOc2ccc(C(=N)N)cc2)cc1`, the MIC was over 200 µg/mL (mcr-1; 20 h, compound alone).
For `CC(C)C[C@H](NC(=O)[C@H](Cc1ccc(O)cc1)NC(=O)[C@@H]1CCCN1C(=O)[C@@H]1CCCN1C(=O)[C@H](CCCCN)NC(=O)[C@H](CC(=O)O)NC(=O)[C@@H](N)C(C)C)C(=O)N1CCC[C@H]1C(=O)N[C@@H](CCCNC(=N)N)C(=O)N1CCC[C@H]1C(=O)N[C@@H](CCCNC(=N)N)C(=O)N1CCC[C@H]1C(=O)N1CCC[C@H]1C(=O)N[C@@H](CCCNC(=N)N)C(N)=O`, the MIC was 8 µg/mL (broth microdilution; MRE600; 16 h, 37 °C, 25% Mueller-Hinton broth).
With `CCCCCCCCCC(=O)N[C@@H](Cc1c[nH]c2ccccc12)C(=O)N[C@H](CC(N)=O)C(=O)N[C@@H](CC(=O)O)C(=O)N[C@@H]1C(=O)NCC(=O)N[C@@H](CCCN)C(=O)N[C@@H](CC(=O)O)C(=O)N[C@H](C)C(=O)N[C@@H](CC(=O)O)C(=O)NCC(=O)N[C@H](CO)C(=O)N[C@@H]([C@H](C)CC(=O)O)C(=O)N[C@@H](CC(=O)c2ccccc2N)C(=O)O[C@@H]1C` the MIC was over 100 µM (K12; 24 h).
`CC[C@H](C)[C@H](NC(=O)CNC(=O)[C@H](CC(=O)O)NC(=O)[C@H](CCCNC(=N)N)NC(=O)[C@@H](NC(=O)[C@H](CC(N)=O)NC(=O)[C@H](CCCNC(=N)N)NC(=O)CNC(=O)[C@@H](NC(=O)[C@H](CCC(=O)O)NC(=O)[C@H](CCC(=O)O)NC(=O)[C@@H](NC(=O)[C@H](CCCCN)NC(=O)[C@H](CCCCN)NC(=O)[C@H](Cc1ccccc1)NC(=O)[C@@H](NC(=O)[C@H](CCCCN)NC(=O)[C@H](Cc1c[nH]c2ccccc12)NC(=O)[C@@H](N)CCCNC(=N)N)[C@@H](C)CC)[C@@H](C)CC)C(C)C)C(C)C)C(=O)N[C@H](C(=O)N[C@@H](CCCCN)C(=O)N[C@@H](C)C(=O)NCC(=O)N1CCC[C@H]1C(=O)N[C@@H](C)C(=O)N[C@H](C(=O)N[C@@H](C)C(=O)N[C@H](C(=O)N[C@H](C(=O)NCC(=O)N[C@@H](CCC(N)=O)C(=O)N[C@@H](C)C(=O)N[C@@H](C)C(=O)N[C@H](C(=O)N[C@H](C(=O)N[C@H](C(=O)N[C@@H](CCCCN)C(N)=O)C(C)C)C(C)C)[C@@H](C)O)C(C)C)C(C)C)C(C)C)[C@@H](C)CC` has an MIC of 2 µM (KCTC 1682, Mueller-Hinton broth; 16 h, 37 °C; growth inhibition over 99%).
The MIC of `CC(C)C[C@H](NC(=O)[C@H](CCCCN)NC(=O)[C@H](CC(C)C)NC(=O)[C@H](CCCCN)NC(=O)[C@H](CC(C)C)NC(=O)[C@H](CCCCN)NC(=O)CNC(=O)[C@H]1CCCN1C(=O)[C@H](CCCCN)NC(=O)[C@H](CC(C)C)NC(=O)[C@H](CCCCN)NC(=O)[C@H](CC(C)C)NC(=O)[C@H](CCCCN)NC(=O)[C@@H](N)CC(C)C)C(N)=O` is reported as 4 µM (broth microdilution; ATCC 25922, Mueller-Hinton broth; 18 h, 37 °C).
`CC(C)Oc1c(NC(=O)c2ccc(N3C(=O)C[C@H](NC(=O)c4ccc(NC(=O)c5ccc(C#N)cc5)cc4)C3=O)cc2)ccc(C(=O)N/N=C/c2cccn2C)c1O` gave an MIC of 0.83 µg/mL (BW25113; 18 h, 37 °C, dark-adapted state).
The MIC of `CC[C@H](C)[C@H](NC(=O)CNC(=O)[C@H](CC(=O)O)NC(=O)[C@H](CCCNC(=N)N)NC(=O)[C@@H](NC(=O)[C@H](CC(N)=O)NC(=O)[C@H](CCCNC(=N)N)NC(=O)CNC(=O)[C@@H](NC(=O)[C@H](CCCCN)NC(=O)[C@H](CCC(=O)O)NC(=O)[C@@H](NC(=O)[C@H](CCCCN)NC(=O)[C@H](CCCCN)NC(=O)[C@H](Cc1ccccc1)NC(=O)[C@@H](NC(=O)[C@H](CCCCN)NC(=O)[C@H](Cc1c[nH]c2ccccc12)NC(=O)[C@@H](N)CCCNC(=N)N)[C@@H](C)CC)[C@@H](C)CC)C(C)C)C(C)C)C(=O)N[C@H](C(=O)N[C@@H](CCCCN)C(=O)N[C@@H](C)C(=O)NCC(=O)NCC(=O)N[C@@H](C)C(=O)N[C@H](C(=O)N[C@@H](C)C(=O)N[C@H](C(=O)N[C@H](C(=O)NCC(=O)N[C@@H](CCC(N)=O)C(=O)N[C@@H](C)C(=O)N[C@@H](C)C(=O)N[C@H](C(=O)N[C@H](C(=O)N[C@H](C(=O)N[C@@H](CCCCN)C(N)=O)C(C)C)C(C)C)[C@@H](C)O)C(C)C)C(C)C)C(C)C)[C@@H](C)CC` is reported as 1 µM (K1 ATCC 700973, Mueller-Hinton broth; 16 h, 37 °C; growth inhibition over 99%).
With `CC[C@H](C)[C@H](NC(=O)[C@H](CC(N)=O)NC(=O)[C@H](Cc1ccccc1)NC(=O)[C@H](CCCNC(=N)N)NC(=O)[C@H](CCCNC(=N)N)NC(=O)[C@@H](N)CCCCN)C(=O)N[C@@H](CCCCN)C(=O)N[C@@H](CC(C)C)C(=O)N[C@@H](Cc1c[nH]c2ccccc12)C(=O)N[C@@H](CCCCN)C(=O)N[C@H](C(=O)N[C@@H](Cc1ccccc1)C(=O)O)[C@@H](C)O` the MIC was 50 µg/mL (K12 MG1655).
`CC[C@H](C)[C@H](NC(=O)[C@H](CC(C)C)NC(=O)[C@H](CCCCN)NC(=O)[C@@H](NC(=O)[C@H](C)NC(=O)[C@H](CCC(=O)O)NC(=O)[C@H](Cc1c[nH]cn1)NC(=O)[C@@H](NC(=O)[C@H](CCCCN)NC(=O)[C@H](CCC(N)=O)NC(=O)[C@H](Cc1ccccc1)NC(=O)[C@@H](NC(=O)[C@H](CCCCN)NC(=O)[C@H](CCCCN)NC(=O)[C@H](CC(C)C)NC(=O)[C@H](C)N)C(C)C)[C@@H](C)CC)[C@@H](C)CC)C(N)=O` gave an MIC of 4 µM (broth microdilution; CCARM 1229 resistant; 18 h, 37 °C).
With `CC1(C)SC2C(NC(=O)C(NC(=O)C3=C(O)C(Cc4ccc([N+](=O)[O-])cc4)NC3=O)c3ccccc3)C(=O)N2C1C(=O)O` (centres unmarked) the MIC was 50 µg/mL (broth microdilution; Keio mutant JW0587-1; 18 h, enterobactin-related gene).
`CC[C@H](C)[C@H](NC(=O)[C@H](C)NC(=O)[C@H](CCCNC(=N)N)NC(=O)[C@H](CCCNC(=N)N)NC(=O)[C@H](CCCNC(=N)N)NC(=O)[C@H](CCCNC(=N)N)NC(=O)[C@H](CCCNC(=N)N)NC(=O)[C@@H](N)CCCNC(=N)N)C(=O)N[C@@H](CO)C(=O)NCC(=O)N[C@@H](CO)C(=O)N[C@@H](CC(C)C)C(=O)N[C@H](C(=O)N[C@H](C(=O)N[C@@H](CC(C)C)C(=O)N[C@@H](Cc1ccccc1)C(=O)NCC(=O)N[C@@H](Cc1ccc(O)cc1)C(N)=O)[C@@H](C)O)C(C)C` has an MIC of 4 µM (broth microdilution; ATCC 25922; highest value reported).
The MIC of `CC1(C)SC2C(NC(=O)C(NC(=O)C3=C(O)C(Cc4ccco4)NC3=O)c3ccccc3)C(=O)N2C1C(=O)O` (centres unmarked) is reported as 12.5 µg/mL (broth microdilution; Keio mutant JW5086-3; 18 h, ferrienterobactin permease gene).
With `CC[C@H](C)[C@H](NC(=O)[C@H](CCCNC(=N)N)NC(=O)[C@H](CCCNC(=N)N)NC(=O)[C@@H](N)CCCNC(=N)N)C(=O)N[C@@H](CO)C(=O)N[C@@H](Cc1ccccc1)C(=O)N[C@@H](CC(C)C)C(=O)NCC(=O)N[C@@H](CO)C(=O)N[C@@H](CCCCN)C(=O)N[C@H](C(=O)N[C@H](C(=O)N[C@H](C(=O)N[C@@H](CCCNC(=N)N)C(=O)N[C@@H](CCCNC(=N)N)C(=O)N[C@@H](CCCCN)C(=O)N[C@@H](CCCNC(=N)N)C(N)=O)C(C)C)C(C)C)C(C)C` the MIC was 64 µM (checkerboard; 24 h, 37 °C, alone, rifampicin plate).
`CC[C@H](C)[C@H](NC(=O)[C@H](CCCCN)NC(=O)[C@H](CC(=O)O)NC(=O)[C@H](CC(C)C)NC(=O)[C@@H](NC(=O)[C@H](CC(N)=O)NC(=O)[C@H](CC(C)C)NC(=O)[C@@H](NC(=O)[C@H](Cc1ccccc1)NC(=O)[C@H](CCCCN)NC(=O)[C@H](CCCCN)NC(=O)CNC(=O)[C@H](C)NC(=O)[C@H](CC(N)=O)NC(=O)[C@H](CCCCN)NC(=O)[C@H](Cc1ccccc1)NC(=O)[C@H](CC(N)=O)NC(=O)[C@H](CCC(=O)O)NC(=O)[C@H](Cc1c[nH]c2ccccc12)NC(=O)[C@H](CC(C)C)NC(=O)[C@@H](N)CO)[C@@H](C)CC)[C@@H](C)CC)C(=O)N[C@@H](CCCNC(=N)N)C(N)=O` gave an MIC of 2 µM (ATCC 8739; overnight, 37 °C, together with: 4.5 mM KCl).
`CCCCCCC/C=C/C(=O)N1C(=O)/C(=C(\O)c2ccc(F)cc2)C(=O)C1CC(C)C` (centres unmarked) has an MIC of 1.56 µg/mL (K12 ΔtolC).
`CCN1CCN(C(=O)N[C@@H](C(=O)N[C@@H]2C(=O)N3[C@@H]2SC(C)(C)[C@@H]3C(=O)O)c2ccccc2)C(=O)C1=O` has an MIC of under 1.75 µg/mL (BL21(DE3) wild type).
With `CC[C@H](C)[C@H](N)C(=O)N[C@@H](CC(C)C)C(=O)NCC(=O)N[C@@H](CCC(=O)O)C(=O)N[C@H](C(=O)N[C@@H](Cc1c[nH]c2ccccc12)C(=O)N[C@@H](CCCCN)C(=O)NCC(=O)N[C@H](C(=O)N[C@@H](CCCCN)C(=O)N[C@@H](CC(=O)O)C(=O)N[C@H](C(=O)N[C@@H](CC(C)C)C(N)=O)[C@@H](C)CC)[C@@H](C)CC)[C@@H](C)CC` the MIC was 100 µM (broth microdilution; ATCC 25922; concentration not given, together with: BSA).
`CC[C@H](C)[C@H](NC(=O)[C@H](CCCCN)NC(=O)[C@H](CCCCN)NC(=O)CNC(=O)[C@H](CCCCN)NC(=O)[C@H](CC(C)C)NC(=O)[C@H](CCCCN)NC(=O)[C@H](CCCNC(=N)N)NC(=O)[C@@H](NC(=O)[C@H](CC(C)C)NC(=O)[C@H](CCCNC(=N)N)NC(=O)[C@@H](N)CCCNC(=N)N)[C@@H](C)CC)C(=O)N[C@@H](Cc1ccc(O)cc1)C(=O)N[C@@H](CC(C)C)C(=O)N[C@@H](Cc1ccc(O)cc1)C(=O)N[C@@H](Cc1ccccc1)C(=O)N[C@@H](CCCCN)C(=O)N[C@@H](CC(C)C)C(=O)N[C@@H](CCC(N)=O)C(=O)N[C@@H](CC(C)C)C(=O)N[C@@H](CC(C)C)C(=O)N[C@@H](CCCCN)C(=O)N[C@@H](CCCCN)C(N)=O` has an MIC of 8 µM (broth microdilution; KCTC 1682, Mueller-Hinton broth; no added salt).
`CC[C@H](C)[C@H](NC(=O)CNC(=O)[C@H](CC(=O)O)NC(=O)[C@H](CCCNC(=N)N)NC(=O)[C@@H](NC(=O)[C@H](CC(N)=O)NC(=O)[C@H](CCCNC(=N)N)NC(=O)CNC(=O)[C@@H](NC(=O)[C@H](CCCCN)NC(=O)[C@H](CCC(=O)O)NC(=O)[C@@H](NC(=O)[C@H](CCCCN)NC(=O)[C@H](CCCCN)NC(=O)[C@H](Cc1ccccc1)NC(=O)[C@@H](NC(=O)[C@H](CCCCN)NC(=O)[C@H](Cc1c[nH]c2ccccc12)NC(=O)[C@@H](N)CCCNC(=N)N)[C@@H](C)CC)[C@@H](C)CC)C(C)C)C(C)C)C(=O)N[C@H](C(=O)N[C@@H](CCCCN)C(=O)N[C@@H](C)C(=O)NCC(=O)N1CCC[C@H]1C(=O)N[C@@H](C)C(=O)N[C@H](C(=O)N[C@@H](C)C(=O)N[C@H](C(=O)N[C@H](C(=O)NCC(=O)N[C@@H](CCC(N)=O)C(=O)N[C@@H](C)C(=O)N[C@@H](C)C(=O)N[C@H](C(=O)N[C@@H](C)C(=O)N[C@@H](C)C(=O)N[C@@H](CCCCN)C(N)=O)[C@@H](C)O)C(C)C)C(C)C)C(C)C)[C@@H](C)CC` has an MIC of 2 µM (KCTC 1682, Mueller-Hinton broth; 16 h, 37 °C; growth inhibition over 99%).
`CC[C@H](C)[C@H](NC(=O)[C@H](CCCCN)NC(=O)[C@@H](NC(=O)[C@@H](NC(=O)[C@H](CC(C)C)NC(=O)[C@H](CCCNC(=N)N)NC(=O)[C@@H](NC(=O)[C@H](CC(C)C)NC(=O)[C@H](CCCNC(=N)N)NC(=O)CNC(=O)[C@H](Cc1ccccc1)NC(=O)[C@@H](N)CCCNC(=N)N)[C@@H](C)CC)[C@@H](C)CC)C(C)C)C(=O)N[C@@H](C)C(=O)N[C@@H](CCCNC(=N)N)C(=O)N[C@@H](CCCNC(=N)N)C(=O)N[C@@H](C)C(=O)N[C@@H](Cc1c[nH]cn1)C(=O)N[C@@H](CCCNC(=N)N)C(=O)N[C@@H](C)C(=O)N[C@@H](CCCNC(=N)N)C(=O)N[C@@H](CO)C(=O)N[C@@H](C)C(=O)N[C@H](C(=O)N[C@@H](CCCCN)C(=O)N[C@@H](C)C(=O)N[C@@H](C)C(=O)N[C@@H](CO)C(=O)N[C@@H](CC(N)=O)C(=O)N[C@H](C(=O)N[C@@H](C)C(=O)N[C@@H](CCC(=O)O)C(=O)N[C@@H](CC(C)C)C(=O)N[C@@H](C)C(=O)N[C@@H](Cc1c[nH]cn1)C(=O)NCC(=O)N[C@@H](CCC(=O)O)C(=O)O)C(C)C)C(C)C` gave an MIC of 0.501 µM (bacterial growth, broth microdilution; cation-adjusted Mueller Hinton broth; 18 h, 37 °C).

Some of these lines once more:
`CCCCCCC/C=C/C(=O)N1C(=O)/C(=C(\O)c2ccc(F)cc2)C(=O)C1CC(C)C` (centres unmarked) has an MIC of 1.56 µg/mL (K12 ΔtolC).
